Measurements from different studies.
Protocols differ between the studies behind these lines. Several values in a cell are separate wells, animals, samples, runs or records.
CRBN/Zinc finger protein Aiolos: CRBN/Zinc finger protein Aiolos (Homo sapiens, UniProt Q96SW2+Q9UKT9)
MAPK9: Mitogen-activated protein kinase 9 (MAPK9, Homo sapiens, UniProt P45984)
Chain of UniProt P45984 (whole entry, looked up): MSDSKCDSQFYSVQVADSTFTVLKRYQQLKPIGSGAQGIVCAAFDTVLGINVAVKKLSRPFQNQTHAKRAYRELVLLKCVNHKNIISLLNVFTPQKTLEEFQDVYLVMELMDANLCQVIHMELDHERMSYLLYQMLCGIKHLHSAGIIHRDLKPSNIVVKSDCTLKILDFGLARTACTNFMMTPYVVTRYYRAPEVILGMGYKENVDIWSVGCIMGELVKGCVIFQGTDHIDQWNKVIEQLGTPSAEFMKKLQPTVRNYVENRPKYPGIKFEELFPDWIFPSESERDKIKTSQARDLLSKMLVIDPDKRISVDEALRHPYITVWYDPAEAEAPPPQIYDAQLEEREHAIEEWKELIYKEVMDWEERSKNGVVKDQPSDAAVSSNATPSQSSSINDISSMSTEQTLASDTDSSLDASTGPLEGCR
PNLIP: Pancreatic triacylglycerol lipase (PNLIP, Homo sapiens, UniProt P16233)
Chain of UniProt P16233 (whole entry, looked up): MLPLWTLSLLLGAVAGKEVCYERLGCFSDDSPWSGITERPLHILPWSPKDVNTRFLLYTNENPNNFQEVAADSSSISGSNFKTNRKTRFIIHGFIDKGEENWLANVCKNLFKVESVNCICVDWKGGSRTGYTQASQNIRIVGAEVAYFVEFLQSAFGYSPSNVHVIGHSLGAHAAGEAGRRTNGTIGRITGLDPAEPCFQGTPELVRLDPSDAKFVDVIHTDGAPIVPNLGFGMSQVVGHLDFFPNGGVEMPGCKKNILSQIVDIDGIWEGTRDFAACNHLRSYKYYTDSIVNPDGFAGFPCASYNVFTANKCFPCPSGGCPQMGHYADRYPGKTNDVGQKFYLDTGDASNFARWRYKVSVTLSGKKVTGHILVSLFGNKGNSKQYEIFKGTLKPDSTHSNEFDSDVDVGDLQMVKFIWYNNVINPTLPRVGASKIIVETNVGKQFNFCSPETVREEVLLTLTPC
Chain of UniProt P30043 (whole entry, looked up): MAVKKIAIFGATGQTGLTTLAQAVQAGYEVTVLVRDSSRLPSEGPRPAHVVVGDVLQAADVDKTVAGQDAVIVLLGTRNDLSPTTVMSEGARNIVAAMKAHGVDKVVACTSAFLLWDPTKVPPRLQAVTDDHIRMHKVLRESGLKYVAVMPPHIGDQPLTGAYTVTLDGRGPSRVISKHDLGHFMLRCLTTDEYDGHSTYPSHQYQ
Chain of UniProt P42336 (whole entry, unmodified, looked up): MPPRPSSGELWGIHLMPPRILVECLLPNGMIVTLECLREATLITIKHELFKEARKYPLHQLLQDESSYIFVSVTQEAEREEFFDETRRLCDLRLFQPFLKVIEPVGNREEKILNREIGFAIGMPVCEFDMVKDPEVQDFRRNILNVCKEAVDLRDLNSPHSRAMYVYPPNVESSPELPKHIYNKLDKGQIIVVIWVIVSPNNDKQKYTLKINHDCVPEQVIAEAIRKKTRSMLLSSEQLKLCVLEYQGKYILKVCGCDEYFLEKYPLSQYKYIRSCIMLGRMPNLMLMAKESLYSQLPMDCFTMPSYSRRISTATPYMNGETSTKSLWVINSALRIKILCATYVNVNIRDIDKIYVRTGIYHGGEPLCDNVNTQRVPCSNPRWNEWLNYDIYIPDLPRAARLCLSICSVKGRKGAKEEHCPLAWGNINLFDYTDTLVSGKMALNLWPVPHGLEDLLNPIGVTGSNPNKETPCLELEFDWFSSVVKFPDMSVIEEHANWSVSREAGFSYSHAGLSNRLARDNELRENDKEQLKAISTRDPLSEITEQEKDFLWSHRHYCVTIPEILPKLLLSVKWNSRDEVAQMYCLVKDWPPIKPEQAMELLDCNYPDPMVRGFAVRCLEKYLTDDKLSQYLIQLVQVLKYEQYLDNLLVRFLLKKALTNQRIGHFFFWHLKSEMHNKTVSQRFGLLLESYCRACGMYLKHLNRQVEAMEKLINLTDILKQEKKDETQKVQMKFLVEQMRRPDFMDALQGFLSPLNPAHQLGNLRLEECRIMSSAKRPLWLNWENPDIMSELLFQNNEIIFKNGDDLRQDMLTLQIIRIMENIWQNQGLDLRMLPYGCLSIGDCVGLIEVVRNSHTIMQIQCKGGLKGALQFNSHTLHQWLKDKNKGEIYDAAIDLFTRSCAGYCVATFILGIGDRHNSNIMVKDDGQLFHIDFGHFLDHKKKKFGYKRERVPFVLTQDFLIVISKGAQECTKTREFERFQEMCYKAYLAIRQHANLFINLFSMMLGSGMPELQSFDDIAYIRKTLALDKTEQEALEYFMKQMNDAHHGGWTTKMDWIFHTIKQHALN
Chain of UniProt P51575 (whole entry, unmodified, looked up): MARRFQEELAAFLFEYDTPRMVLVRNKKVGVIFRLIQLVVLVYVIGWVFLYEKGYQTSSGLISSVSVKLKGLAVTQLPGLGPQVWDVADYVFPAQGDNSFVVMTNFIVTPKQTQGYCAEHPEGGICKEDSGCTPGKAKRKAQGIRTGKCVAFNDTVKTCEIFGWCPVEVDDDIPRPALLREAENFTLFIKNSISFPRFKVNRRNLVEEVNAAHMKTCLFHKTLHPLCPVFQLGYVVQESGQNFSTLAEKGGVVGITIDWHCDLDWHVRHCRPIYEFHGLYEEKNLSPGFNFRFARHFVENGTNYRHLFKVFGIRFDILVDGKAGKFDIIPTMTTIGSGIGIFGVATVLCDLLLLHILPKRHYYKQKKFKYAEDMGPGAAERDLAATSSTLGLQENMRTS
Chain of UniProt P25774 (whole entry, looked up): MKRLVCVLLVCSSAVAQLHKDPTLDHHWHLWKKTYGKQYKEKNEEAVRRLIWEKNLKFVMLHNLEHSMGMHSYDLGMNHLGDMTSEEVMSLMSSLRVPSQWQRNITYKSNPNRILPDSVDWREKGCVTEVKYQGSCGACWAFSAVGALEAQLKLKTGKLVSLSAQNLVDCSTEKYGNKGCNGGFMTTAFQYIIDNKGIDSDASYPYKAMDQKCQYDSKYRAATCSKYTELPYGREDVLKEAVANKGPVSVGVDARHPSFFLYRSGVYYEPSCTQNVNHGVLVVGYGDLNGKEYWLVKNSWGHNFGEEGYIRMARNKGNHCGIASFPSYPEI
Chain of UniProt P00748 (whole entry, looked up): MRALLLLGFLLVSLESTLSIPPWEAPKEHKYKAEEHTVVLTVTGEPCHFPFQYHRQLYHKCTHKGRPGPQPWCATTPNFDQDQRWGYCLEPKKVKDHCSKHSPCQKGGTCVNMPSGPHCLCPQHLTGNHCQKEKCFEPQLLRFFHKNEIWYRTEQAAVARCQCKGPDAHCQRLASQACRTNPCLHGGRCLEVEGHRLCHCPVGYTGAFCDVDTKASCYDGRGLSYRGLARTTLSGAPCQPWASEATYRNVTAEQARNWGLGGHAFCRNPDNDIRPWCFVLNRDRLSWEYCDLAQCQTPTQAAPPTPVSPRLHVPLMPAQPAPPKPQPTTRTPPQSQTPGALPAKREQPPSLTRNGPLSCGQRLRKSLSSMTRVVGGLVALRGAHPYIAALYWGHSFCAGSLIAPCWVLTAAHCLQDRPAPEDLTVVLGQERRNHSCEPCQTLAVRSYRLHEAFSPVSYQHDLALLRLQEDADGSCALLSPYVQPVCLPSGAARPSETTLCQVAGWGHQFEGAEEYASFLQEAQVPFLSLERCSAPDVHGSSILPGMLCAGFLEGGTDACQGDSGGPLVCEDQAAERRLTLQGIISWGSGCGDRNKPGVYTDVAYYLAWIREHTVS
Chain of UniProt P45983 (whole entry, looked up): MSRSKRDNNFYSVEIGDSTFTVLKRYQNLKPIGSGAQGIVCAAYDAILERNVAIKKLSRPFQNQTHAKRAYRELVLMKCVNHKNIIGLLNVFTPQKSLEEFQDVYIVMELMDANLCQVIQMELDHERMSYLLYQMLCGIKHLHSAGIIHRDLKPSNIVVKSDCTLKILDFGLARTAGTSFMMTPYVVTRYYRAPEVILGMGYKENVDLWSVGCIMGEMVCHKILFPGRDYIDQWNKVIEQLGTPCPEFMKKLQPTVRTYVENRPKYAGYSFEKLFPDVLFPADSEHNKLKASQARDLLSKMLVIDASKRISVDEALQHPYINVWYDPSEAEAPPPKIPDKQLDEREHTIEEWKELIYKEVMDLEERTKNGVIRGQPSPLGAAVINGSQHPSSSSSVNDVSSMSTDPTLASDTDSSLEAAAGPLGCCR
Chain of UniProt Q9HB29 (whole entry, looked up): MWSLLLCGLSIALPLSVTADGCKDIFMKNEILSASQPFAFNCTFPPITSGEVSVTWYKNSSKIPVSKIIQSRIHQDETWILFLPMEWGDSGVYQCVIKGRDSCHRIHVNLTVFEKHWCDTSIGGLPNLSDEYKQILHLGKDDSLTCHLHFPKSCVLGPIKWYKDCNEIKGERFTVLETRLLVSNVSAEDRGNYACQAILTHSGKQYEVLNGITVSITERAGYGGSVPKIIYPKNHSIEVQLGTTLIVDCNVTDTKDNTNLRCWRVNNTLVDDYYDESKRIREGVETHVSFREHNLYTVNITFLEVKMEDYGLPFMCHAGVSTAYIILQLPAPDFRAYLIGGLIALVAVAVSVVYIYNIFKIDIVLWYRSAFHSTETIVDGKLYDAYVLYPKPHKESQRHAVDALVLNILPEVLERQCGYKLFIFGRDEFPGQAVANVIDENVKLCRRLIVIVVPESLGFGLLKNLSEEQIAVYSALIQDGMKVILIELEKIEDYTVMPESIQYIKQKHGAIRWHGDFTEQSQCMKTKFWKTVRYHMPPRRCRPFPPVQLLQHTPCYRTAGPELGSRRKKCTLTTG

The remaining activity of `N#Cc1cnc2sc(C(=O)O)cc2c1N1CCc2[nH]nc(C(=O)N[C@@H](CC(=O)NCCOCCN3CCOCC3)c3cccc(Br)c3)c2C1` is reported as 86.4% (IL1R1 (Homo sapiens, UniProt P14778); IL-8 release, antagonist; A-431; 800 µM, 18 h, added: IL-1β 5 ng/mL; reference: untreated).
With `O=C1CCC(N2C(=O)c3cccc4c(Cc5cnn(C6CCNCC6)c5)ccc2c34)C(=O)N1` (stereo not drawn) the remaining activity was 23.1% (CRBN/Zinc finger protein Aiolos; protein level, degrader, western blot; NCI-H929; 10 nM, 4 h).
With `COC(=O)[C@]1(C(C)C)C=C(C(=O)Nc2cccc(C(=O)Nc3ccc(Nc4nccc(-c5cccnc5)n4)c(C)c3)c2)C(=O)CC1` the remaining activity was 0.995 (MAPK8 (Homo sapiens, UniProt P45983); kinase activity, inhibitor; 0.006774 µM, unit not given, added: 10 mM glutathione; reference: no inhibitor).
With `COc1cc(Nc2nc(C)cc(-c3cnn4nc(OC)ccc34)n2)cc(C(F)(F)F)c1` the remaining activity was 59% (PIK3CA (Homo sapiens, UniProt P42336, E542K); inhibitor; 1 µM; reference: control).
For `COC(=O)CN1CCCc2cc3cc(C(=O)NC(Cc4ccc(C)cc4)C(=O)NCC=CS(=O)(=O)c4ccccc4)c(=O)oc3cc21` (stereo not drawn), the remaining activity was under 1% (Cathepsin S (CTSS, Homo sapiens, UniProt P25774); inhibitor; 5 µM, 60 min, added: Z-Phe-Arg-AMC; reference: uninhibited control).
The remaining activity of `O=C1CCC(N2Cc3c(OCc4ccc(CN5CCNCC5)cc4)cccc3C2=O)C(=O)N1` (stereo not drawn) is reported as 96.6% (CRBN/Zinc finger protein Aiolos; protein level, degrader, western blot; NCI-H929; 1 nM, 4 h).
For `Cc1cc(NC(=O)c2cccc(N)c2)ccc1Nc1nccc(-c2cccnc2)n1`, the remaining activity was 0.0616 (MAPK9; enzyme activity, inhibitor; 44.44 µM, unit not given; reference: vehicle).
For `O=C1c2ccccc2C(=O)c2c(O)ccc(O)c21`, the remaining activity was 6.24% (PNLIP; enzyme activity, inhibitor, fluorescence; 50 µM).
With `CN(Cc1cc(C2CC2)on1)C(=O)c1cccc(-c2ccc3c(c2)CCO3)c1` the remaining activity was 93.1% and 100% (Acetyl-CoA synthetase (Cryptococcus neoformans, UniProt J9VFT1); enzyme activity, inhibitor, coupled pyrophosphate; 3.13 µM).
The remaining activity of `O=C(O)c1ccc(-c2nc(-c3ccccc3)c3sccn23)cc1` is reported as 100% (BLVRB (Homo sapiens, UniProt P30043); concentration not given).
The remaining activity of `Cc1ccc(-c2c(/C=C(\C#N)C(=O)NC(C)C)n(CCCO)c3ncnc(N)c23)cc1` is reported as 76% (ABL1 (Homo sapiens, UniProt P00519, F317L); enzyme activity, inhibitor; 1 µM).
The remaining activity of `C[C@](C(=O)NC1CCOCC1)(c1cncnc1)N(C(=O)[C@H](F)Cl)c1ccc(OC(F)(F)Cl)cc1` is reported as 102% (F12 (Homo sapiens, UniProt P00748); enzyme activity, inhibitor; 10 µM).
`C#CCOC(=O)[C@]1(C)C=C(C(=O)Nc2cccc(C(=O)Nc3ccc(C)c(Nc4nccc(-c5cccnc5)n4)c3)c2)C(=O)CC1` has a remaining activity of 0.0409 (MAPK9; enzyme activity, inhibitor; 44.44 µM, unit not given; reference: vehicle).
`O=C1c2ccccc2C(=O)c2cc(Cl)ccc21` gave a remaining activity of 13.3% (PNLIP; enzyme activity, inhibitor, fluorescence; 50 µM).
The remaining activity of `O=C1CCC(N2Cc3c(OCc4cn(C5CCNCC5)nn4)cccc3C2=O)C(=O)N1` (stereo not drawn) is reported as 75% (CRBN/Zinc finger protein Aiolos; protein level, degrader, western blot; NCI-H929; 10 nM, 4 h).
`O=C(Nc1cc(C(=O)Nc2ccc(S(=O)(=O)O)cc2S(=O)(=O)O)cc(C(=O)Nc2ccc(S(=O)(=O)O)cc2S(=O)(=O)O)c1)Nc1cc(C(=O)Nc2ccc(S(=O)(=O)O)cc2S(=O)(=O)O)cc(C(=O)Nc2ccc(S(=O)(=O)O)cc2S(=O)(=O)O)c1` has a remaining activity of 0% (P2X purinoceptor 1 (P2RX1, Homo sapiens, UniProt P51575, F188L); calcium influx, antagonist; 10 µM, added: α,β-methylene ATP submaximal).
For `O=C1CCC(N2C(=O)c3cccc4c(Cc5ccc(CN6CCNCC6)cc5)ccc2c34)C(=O)N1` (stereo not drawn), the remaining activity was 79.2% (CRBN/Zinc finger protein Aiolos; protein level, degrader, western blot; NCI-H929; 1 nM, 4 h).
`O=C=[N][Ru-4]123([n]4c5ccc(O)cc5c5c6c(c7cc(F)c[n+]1c7c54)C(=O)NC6=O)[S+]1CC[S+]2CC[S+]3CC1` (stereo not drawn) gave a remaining activity of 113% (Abl2 (Mus musculus, UniProt Q4JIM5); enzyme activity; 100 nM, mouse enzyme, added: 10 µM ATP; reference: untreated).
With `CC(C)[C@@H]1NC(=O)[C@H](Cc2ccccc2)NC(=O)CSC[C@@H](C(N)=O)NC(=O)[C@H](CCC(=O)O)NC(=O)[C@H](CO)NC(=O)[C@H](Cc2c[nH]c3cccc(Cl)c23)NC(=O)[C@H](C2CCCCC2)NC(=O)[C@H](C(C)C)NC(=O)[C@H](Cc2ccc(O)cc2)NC(=O)[C@H](CC(=O)O)NC(=O)[C@H](Cc2c[nH]c3ccccc23)NC(=O)[C@H](Cc2ccc(N)nc2)NC(=O)[C@H](Cc2c[nH]c3ccc(Cl)cc23)NC(=O)[C@H](CCC(=O)O)NC1=O` the remaining activity was 93.7% (Interleukin-1 receptor-like 2 (IL1RL2, Homo sapiens, UniProt Q9HB29); reporter gene (SEAP), inhibitor, HEK-Blue IL-36R reporter; HEK-Blue IL-36R cells; 0.005 µM, 6 h, added: IL-36β 0.03 ng/mL).
`O=C1CCC(N2C(=O)c3cccc4c(Cc5cnn(C6CCN(C(=O)C7(O)CCC7)CC6)c5)ccc2c34)C(=O)N1` (stereo not drawn) gave a remaining activity of 6.11% (CRBN/Zinc finger protein Aiolos; protein level, degrader, western blot; NCI-H929; 10 nM, 4 h).
The remaining activity of `COC(=O)[C@@]1(C)C=C(C(=O)Nc2cccc(C(=O)Nc3ccc(Nc4nccc(-c5cccnc5)n4)c(C)c3)c2)C(=O)CC1` is reported as 0.0476 (MAPK9; enzyme activity, inhibitor; 44.44 µM, unit not given; reference: vehicle).
With `Nc1nc(Nc2ccccc2)sc1C(=O)c1ccccc1` the remaining activity was 41% (AMP-activated protein kinase; enzyme activity, inhibitor; 10 µM).
`O=C1CCC(N2C(=O)c3cccc4c(Cc5cnn(C6CCN(C(=O)CO)CC6)c5)ccc2c34)C(=O)N1` (stereo not drawn) has a remaining activity of 46.9% (CRBN/Zinc finger protein Aiolos; protein level, degrader, western blot; NCI-H929; 1 nM, 4 h).
With `Cc1ccc(Nc2ccc(O)c3c2C(=O)c2ccccc2C3=O)cc1` the remaining activity was 23.6% (PNLIP; enzyme activity, inhibitor, fluorescence; 50 µM).

A few entries again:
With `Cc1ccc(Nc2ccc(O)c3c2C(=O)c2ccccc2C3=O)cc1` the remaining activity was 23.6% (PNLIP; enzyme activity, inhibitor, fluorescence; 50 µM).
`C#CCOC(=O)[C@]1(C)C=C(C(=O)Nc2cccc(C(=O)Nc3ccc(C)c(Nc4nccc(-c5cccnc5)n4)c3)c2)C(=O)CC1` has a remaining activity of 0.0409 (MAPK9; enzyme activity, inhibitor; 44.44 µM, unit not given; reference: vehicle).
